# Results from different studies.
# “And” joins repeats or separate records; there may be more than shown. Numbers after ± are the reported error.
# GPR17: Uracil nucleotide/cysteinyl leukotriene receptor (GPR17, Homo sapiens, UniProt Q13304)
# SLC10A1: Hepatic sodium/bile acid cotransporter (SLC10A1, Homo sapiens, UniProt Q14973)
# chemosensory protein 1: chemosensory protein 1 (Chilo suppressalis, UniProt V9PY22)
# Protein farnesyltransferase: Protein farnesyltransferase (Homo sapiens, UniProt P49354+P49356)
# CXCR4: C-X-C chemokine receptor type 4 (CXCR4, Homo sapiens, UniProt P61073)
# T1: RNA aptamer original isolate 9-12; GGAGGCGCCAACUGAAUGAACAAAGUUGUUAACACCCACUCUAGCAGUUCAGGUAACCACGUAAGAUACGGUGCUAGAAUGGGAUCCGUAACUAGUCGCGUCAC
# T2: RNA aptamer A45C/A49U/C71U; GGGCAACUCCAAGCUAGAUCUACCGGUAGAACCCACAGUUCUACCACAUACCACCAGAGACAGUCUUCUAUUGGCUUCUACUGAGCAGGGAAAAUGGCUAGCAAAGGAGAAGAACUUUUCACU
Molecule,target,test,system,setting,how to read,measurement,result
Nc1nc2c(ncn2[C@@H]2O[C@H](COP(=O)(O)OP(=O)(O)OP(=O)(O)O)[C@@H](O)[C@H]2O)c(=O)[nH]1,"T1, RNA aptamer original isolate 9-12",ultrafiltration,,"apparent, with: GTP",,Kd,300 nM
CC(C)C[C@H](NC(=O)[C@H](C)NC(=O)[C@@H](N)CO)C(=O)N[C@@H](CC(C)C)C(=O)N[C@@H](CCCNC(=N)N)C(=O)N[C@@H](CC(N)=O)C(=O)O,"F2R (Homo sapiens, UniProt P25116)",AFM force spectroscopy,proteoliposomes,,,binding free energy,-5.73 kcal/mol
CS(=O)(=O)c1ccc([C@@H](CC2CCCC2)C(=O)Nc2nccs2)cc1,"Hexokinase-4 (Mus musculus, UniProt P52792)",activator,,"3 µM, pH 7.4, 37 °C, with or without BAD SAHB, with: glucose 0 to 50 mM, ATP 5 mM",,Hill coefficient,1.71 ± 0.06
C[C@H](NC(=O)[C@H](Cc1c(F)c(F)c(F)c(F)c1F)NC(=O)[C@@H](NC(=O)[C@H](Cc1ccccc1)NC(=O)[C@H](C)NC(=O)[C@H](CCCNC(=N)N)N(C)C(=O)[C@@H]1CCCN1C(=O)[C@H](CCCNC(=N)N)NC(=O)CNC(=O)c1ccc2c(c1)C1(OC2=O)c2ccc(O)cc2Oc2cc(O)ccc21)[C@@H](C)O)C(=O)N[C@@H](CCC(=O)O)C(=O)NCC(N)=O,"AKT1 (Homo sapiens, UniProt P31749)","substrate, CE-LIF",,"25 µM, pH 7.0, 30 °C, enzyme 6 nM, with: ATP 1 mM",,time to half phosphorylation,174 min
CCCC/C=C\CCCCCCCCCCCC=O,Chilo suppressalis CSP2,"binding, competitive ligand, fluorescence competitive binding",,"highest concentration tested, pH 7.4, protein 2 µM, with: 1-NPN 2 µM",relative to: no ligand,remaining 1-NPN fluorescence,43.3 ± 2.13%
CNc1ncnc2c1ncn2[C@H]1C[C@H](OP(=O)(O)O)[C@@H](COP(=O)(O)O)O1.N.N,GPR17,frontal affinity chromatography-MS,immobilized on IAM column,"1 µM, compound mixture",,breakthrough time,7.1 min
CCOC(=O)[C@H](CCc1ccccc1)N[C@@H](C)C(=O)N1CCC[C@H]1C(=O)O,SLC10A1,inhibitor,HEK293 expressing NTCP,"100 µM, 5 min, with: taurocholate 10 µM",relative to: no compound,taurocholate uptake,111 ± 4%
Oc1c(Cl)cc(-c2cccc(Cl)c2)cc1Cl,"SULT2A1 (Homo sapiens, UniProt Q06520)","substrate, HPLC of PAP formation",,"substrate inhibition fit, with: PAPS 200 µM",,Vmax,51.8 ± 16.3 nmol/min/mg
CCCc1ccc(Oc2ccccc2)c(O)c1,"Enoyl-[acyl-carrier-protein] reductase [NADPH] FabI (Staphylococcus aureus, UniProt Q6GI75)","enzyme activity, inhibitor, progress curve kinetics, measured: NADPH",,,,Ki,0.07 nM
COC(=O)C1=C(C)NC(C)=C(C(=O)OC(C)C)C1c1cccc2nonc12 (stereo not shown),SLC10A1,inhibitor,HEK293 expressing NTCP,"100 µM, 5 min, with: taurocholate 10 µM",relative to: no compound,taurocholate uptake,59.3 ± 3.2%
COc1cc2c(NC3CCN(CCCC(=O)NCCC(=O)N[C@H](C(=O)N4C[C@H](O)C[C@H]4C(=O)NCc4ccc(-c5scnc5C)cc4)C(C)(C)C)CC3)nc(N3CCC(F)(F)CC3)nc2cc1OCCCN1CCCC1,"EHMT2 (Homo sapiens, UniProt Q96KQ7)","degrader, western blot",,"0.3 µM, 24 h",relative to: DMSO,degradation,66 ± 23%
CCC/C=C/C=O,chemosensory protein 1,"binding, competitive ligand, fluorescence competitive binding",,"highest concentration tested, pH 7.4, protein 2 µM, with: 1-NPN 2 µM",relative to: no ligand,remaining 1-NPN fluorescence,56.7 ± 0.97%
N.N.Nc1nc(Cl)nc2c1ncn2[C@H]1C[C@H](OP(=O)(O)O)[C@@H](COP(=O)(O)O)O1,"Uracil nucleotide/cysteinyl leukotriene receptor, short isoform (GPR17, Homo sapiens, UniProt Q13304, R283I)",frontal affinity chromatography-MS,mutated receptor IAM column,concentration not given,relative to: wild type column,breakthrough time change,-0.3%
CRLL,Protein farnesyltransferase,"enzyme activity, substrate, fluorimetric",peptide,"3 µM, 30 min, with: 9 µM farnesyl diphosphate",relative to: dansyl-GCVLS (set to 1.0),relative fluorescence increase,< 0.05
CNc1nc(Cl)nc2c1ncn2[C@@H]1O[C@H](COP(=O)(O)OP(=O)(O)OP(=O)(O)O)[C@@H](O)[C@H]1O.N.N.N.N,GPR17,frontal affinity chromatography-MS,immobilized on IAM column,"1 µM, compound mixture",,breakthrough time,9.22 min
Cl.Cl.Nc1ncnc2c1ncn2[C@@H]1O[C@H](C(=O)N2CCN(CC(=O)Nc3cccc4c3CNC4=O)CC2)[C@@H](O)[C@H]1O,"PARP1 (Homo sapiens, UniProt P09874)","DNA binding, fluorescence polarization DNA competition",,"100 µM, 200 s, with: unlabeled competitor DNA 2 µM",,PARP1 bound to DNA,63 ± 2%
CC[C@H](C)C(=O)O[C@H]1C[C@@H](C)C=C2C=C[C@H](C)[C@H](CC[C@@H]3C[C@@H](O)CC(=O)O3)[C@H]21,"HMGCR (Homo sapiens, UniProt P04035)",Western blot,HepG2,"1 µM, 16 h",relative to: untreated control,remaining protein level,266 ± 29%
CC[C@H](C)[C@H](NC(=O)[C@H](Cc1c[nH]cn1)NC(=O)[C@H](CC(=O)O)NC(=O)[C@H](C)NC(=O)[C@H](CC(C)C)NC(=O)[C@@H](NC(=O)[C@@H](NC(=O)[C@H](CC(C)C)NC(=O)[C@H](CCCNC(=N)N)NC(=O)[C@H](Cc1c[nH]cn1)NC(=O)[C@@H](NC(=O)[C@H](CCCNC(=N)N)NC(=O)[C@@H]1CCCN1C(=O)[C@@H](NC(=O)[C@H](CCC(N)=O)NC(=O)CN)C(C)C)[C@@H](C)O)[C@@H](C)CC)[C@@H](C)O)C(=O)N[C@@H](CS)C(=O)N[C@@H](CCC(N)=O)C(=O)N[C@H](C(=O)N[C@H](C(=O)N[C@H](C(=O)N[C@@H](CCC(N)=O)C(=O)N[C@@H](CC(=O)O)C(=O)N[C@@H](Cc1ccccc1)C(=O)N[C@@H](C)C(=O)N[C@@H](CCCNC(=N)N)C(=O)O)[C@@H](C)O)[C@@H](C)CC)[C@@H](C)CC,"NR1D1 (Homo sapiens, UniProt P20393)","NCoR peptide binding, competitor, TR-FRET",,"1 h, with: labelled NCoR 2040-2065 peptide",relative to: mutant over wild-type peptide,IC50 fold change,0
CMEL,Protein farnesyltransferase,"enzyme activity, substrate, fluorimetric",peptide,"3 µM, 30 min, with: 9 µM farnesyl diphosphate",relative to: dansyl-GCVLS (set to 1.0),relative fluorescence increase,0
CN(Cc1cccc(CN(C)c2ccccc2)n1)c1ccccc1,CXCR4,"binding, competition binding",MDA-MB-231,"semi-quantitative screen, with: biotinylated TN14003",,lowest effective concentration,1000 nM
CCCC1O[C@@H]2C[C@H]3[C@@H]4CCC5=CC(=O)C=C[C@]5(C)[C@H]4[C@@H](O)C[C@]3(C)[C@]2(C(=O)CO)O1 (stereo partly shown),SLC10A1,inhibitor,HEK293 expressing NTCP,"100 µM, 5 min, with: taurocholate 10 µM",relative to: no compound,taurocholate uptake,79.3 ± 6.4%
NC[C@@H]1O[C@H](O[C@H]2[C@@H](O)[C@H](O[C@@H]3[C@@H](O)[C@H](N)C[C@H](N)[C@H]3O[C@H]3O[C@H](CO)[C@@H](O)[C@H](O)[C@H]3N)O[C@@H]2CO)[C@H](N)[C@@H](O)[C@@H]1O,"T2, RNA aptamer A45C/A49U/C71U",ITC,,"25 °C, KCl 250 mM, one-site fit",,Kd,10 nM
CCCCCCCCCCCC(=O)O,chemosensory protein 1,"binding, competitive ligand, fluorescence competitive binding",,"highest concentration tested, pH 7.4, protein 2 µM, with: 1-NPN 2 µM",relative to: no ligand,remaining 1-NPN fluorescence,73.9 ± 2.72%
O=C(CC1NCCCC1O)Cn1cnc2cc(Br)c(Cl)cc2c1=O (stereo not shown),"Bifunctional glutamate/proline--tRNA ligase, prolyl-tRNA synthetase domain (EPRS1, Homo sapiens, UniProt P07814)",thermal shift,,,,melting temperature,73.5 °C and 64.3 °C and 79.8 °C
CC(C)=CCC/C(C)=C/CC/C(C)=C/CC/C(C)=C/CO,"Alcohol dehydrogenase 1 (Adh1, Rattus norvegicus, UniProt P06757)",substrate,,"50 µM, pH 7.4, with: 2 mM NAD+",,dehydrogenase activity,0.45 U/mg
CC[C@H](C)[C@H](NC(=O)[C@@H](NC(=O)[C@H](C)NC(=O)[C@H](Cc1ccc(OP(=O)(O)O)cc1)NC(=O)[C@H](CCC(=O)O)NC(=O)[C@@H](NC(=O)[C@H](CCC(N)=O)NC(=O)[C@H](CCC(=O)O)NC(C)=O)[C@@H](C)O)[C@@H](C)O)C(=O)N[C@H](C(=O)N[C@@H](Cc1ccccc1)C(=O)N1CCC[C@H]1C(N)=O)C(C)C,"Tyrosine-protein phosphatase non-receptor type 11, N-SH2 domain (PTPN11, Homo sapiens, UniProt Q06124)",peptide binding,,"concentration not given, 298 K",,conformational entropy change,-19.5 J/(mol·K)
CCOC(=O)CC1C(C(=O)OCC)=C(N)Oc2ccc(-c3cc(OC)cc(OC)c3)cc21 (stereo not shown),"ATP2A1 (Oryctolagus cuniculus, UniProt P04191)",Ca2+-dependent ATPase activity,rabbit SR vesicles,"30 µM, unit not given, with: varied Ca2+",relative to: control,Vmax,0.4 ± 0.01
O=C(NCc1ccc(CNS(=O)(=O)c2ccccc2F)cc1)c1ccc(CNc2ncccn2)cc1,CXCR4,"binding, competitive inhibitor, competitive binding",MDA-MB-231,"semi-quantitative rhodamine readout, with: biotinylated TN14003",,lowest effective concentration,1000 nM
C=C(F)C(=O)N1CCN(c2nc(OC[C@@H]3CCCN3CCCOCCC(=O)N[C@H](C(=O)N3C[C@H](O)C[C@H]3C(=O)NCc3ccc(-c4scnc4C)cc3)C(C)(C)C)nc3c2CCN(c2cccc4cccc(Cl)c24)C3)C[C@@H]1CC#N,"GTPase KRas (KRAS, Homo sapiens, UniProt P01116, G12C)","protein degradation, degrader",human cells,,,Dmax,75 to 90%
CIIL,Protein farnesyltransferase,"enzyme activity, substrate, fluorimetric",peptide,"3 µM, 30 min, with: 9 µM farnesyl diphosphate",relative to: dansyl-GCVLS (set to 1.0),relative fluorescence increase,1.01
C[C@H]1C[C@@H]2[C@H]([C@@H](O)C[C@@]3(C)[C@H]2CC[C@]3(O)C(=O)CO)[C@@]2(C)C=CC(=O)C=C12,SLC10A1,inhibitor,HEK293 expressing NTCP,"100 µM, 5 min, with: taurocholate 10 µM",relative to: no compound,taurocholate uptake,79.5 ± 3.5%
CAIL,Protein farnesyltransferase,"enzyme activity, substrate, fluorimetric",peptide,"3 µM, 30 min, with: 9 µM farnesyl diphosphate",relative to: dansyl-GCVLS (set to 1.0),relative fluorescence increase,0.71
Clc1ccc(COC(Cn2ccnc2)c2ccc(Cl)cc2Cl)c(Cl)c1 (stereo not shown),SLC10A1,inhibitor,NTCP-HEK293,50 µM,relative to: without compound,taurocholate uptake,94.6 ± 2.6%
CCCCCCCCCCCC=O,chemosensory protein 1,"binding, competitive ligand, fluorescence competitive binding",,"highest concentration tested, pH 7.4, protein 2 µM, with: 1-NPN 2 µM",relative to: no ligand,remaining 1-NPN fluorescence,37.4 ± 2.76%

# Excerpt of the above:
Molecule,target,test,system,setting,how to read,measurement,result
CS(=O)(=O)c1ccc([C@@H](CC2CCCC2)C(=O)Nc2nccs2)cc1,"Hexokinase-4 (Mus musculus, UniProt P52792)",activator,,"3 µM, pH 7.4, 37 °C, with or without BAD SAHB, with: glucose 0 to 50 mM, ATP 5 mM",,Hill coefficient,1.71 ± 0.06
NC[C@@H]1O[C@H](O[C@H]2[C@@H](O)[C@H](O[C@@H]3[C@@H](O)[C@H](N)C[C@H](N)[C@H]3O[C@H]3O[C@H](CO)[C@@H](O)[C@H](O)[C@H]3N)O[C@@H]2CO)[C@H](N)[C@@H](O)[C@@H]1O,"T2, RNA aptamer A45C/A49U/C71U",ITC,,"25 °C, KCl 250 mM, one-site fit",,Kd,10 nM
N.N.Nc1nc(Cl)nc2c1ncn2[C@H]1C[C@H](OP(=O)(O)O)[C@@H](COP(=O)(O)O)O1,"Uracil nucleotide/cysteinyl leukotriene receptor, short isoform (GPR17, Homo sapiens, UniProt Q13304, R283I)",frontal affinity chromatography-MS,mutated receptor IAM column,concentration not given,relative to: wild type column,breakthrough time change,-0.3%
CCCc1ccc(Oc2ccccc2)c(O)c1,"Enoyl-[acyl-carrier-protein] reductase [NADPH] FabI (Staphylococcus aureus, UniProt Q6GI75)","enzyme activity, inhibitor, progress curve kinetics, measured: NADPH",,,,Ki,0.07 nM
